Assay results from different studies.
Each line is one published result; not all experiments were run side by side.
Target: Serine/threonine-protein kinase Nek11 (NEK11, Homo sapiens, UniProt Q8NG66)
Residues used in one study (Q8NG66 1-645): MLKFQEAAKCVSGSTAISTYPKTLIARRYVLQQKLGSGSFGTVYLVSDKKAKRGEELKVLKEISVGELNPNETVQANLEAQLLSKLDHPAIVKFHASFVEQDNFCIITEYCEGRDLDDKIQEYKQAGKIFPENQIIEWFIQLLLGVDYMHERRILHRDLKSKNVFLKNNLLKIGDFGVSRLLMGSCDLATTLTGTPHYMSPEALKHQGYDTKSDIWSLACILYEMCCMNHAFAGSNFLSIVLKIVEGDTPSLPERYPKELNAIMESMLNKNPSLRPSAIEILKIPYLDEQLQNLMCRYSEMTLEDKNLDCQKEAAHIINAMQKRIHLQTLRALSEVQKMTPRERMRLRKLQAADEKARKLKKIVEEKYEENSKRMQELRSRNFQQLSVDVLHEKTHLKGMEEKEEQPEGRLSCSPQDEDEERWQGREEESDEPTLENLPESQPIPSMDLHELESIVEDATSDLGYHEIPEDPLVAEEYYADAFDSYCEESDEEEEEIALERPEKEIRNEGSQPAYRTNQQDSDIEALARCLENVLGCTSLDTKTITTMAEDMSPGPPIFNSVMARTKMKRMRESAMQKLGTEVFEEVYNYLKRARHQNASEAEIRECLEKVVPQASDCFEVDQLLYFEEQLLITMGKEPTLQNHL

| Compound | assay | setting | scale | measurement | value |
| --- | --- | --- | --- | --- | --- |
| CCn1cc(C(=O)O)c(=O)c2c(N)c(F)c(NC3CCCCC3)cc21 | kinase activity | 0.1 µM, together with: ATP at Km |  | inhibition | 0.4% |
| C=CC(=O)N1CCc2ccc(-n3c(=O)ccc4cnc5ccc(-c6cnn(C)c6)cc5c43)cc21 | KINOMEscan | 1 µM | baseline: DMSO control | remaining binding | 100% |
| Nc1ncc(-c2cc(-c3cnn(CC(F)(F)F)c3)ncc2F)nc1C(=O)NC1CNCC(F)C1 (stereo not shown) | enzyme activity | 1 µM | baseline: DMSO control | remaining activity | 87.4% |
| COc1c(OCCCN2CCOCC2)ccc2c1N=C(NC(=O)c1cnc(N)nc1)N1CCN=C21 | kinase activity, inhibitor | 1 µM | baseline: untreated control | remaining activity | 137% |
| COc1cc(Nc2nccc(-c3cnn4nc(OC)ccc34)n2)cc(C(F)(F)F)c1 | binding, competition with immobilised ligand | 1 µM |  | remaining binding | 94% |
| COc1ccc(C(=O)/C=C/c2ccccc2-c2c[nH]c3ccc(C#N)cc23)c(O)c1 | enzyme activity, inhibitor | 20 µM |  | inhibition | 20% |
| Nc1ncc2c(n1)-c1c([nH]c3ccc(C4=CCOCC4)cc13)CCC2 | binding, competition with immobilised ligand | 1 µM |  | remaining binding | 100% |
| O=C=[N][Ru-4]123([n]4c5ccc(O)cc5c5c6c(c7cc(F)c[n+]1c7c54)C(=O)NC6=O)[S+]1CC[S+]2CC[S+]3CC1 (stereo not shown) | enzyme activity | 100 nM, human enzyme, together with: 10 µM ATP | baseline: untreated | remaining activity | 101% |
| CC(C)=CC1OC(C)(C)C2C=C3C(=O)C(Cl)=CC(O)C3C3C(O)C4OC4C(=O)C132 (stereo not shown) | cell-free assay, competition with immobilised ligand | 10 µM |  | remaining binding | 100% |
| C=CC(=O)N1CCCC(n2c(=O)c3ncccc3n(Cc3ccc(Oc4ccccc4)cc3)c2=O)C1 (stereo not shown) | cell-free assay, competition with immobilised ligand | 1 µM |  | remaining binding | 55% |
| Cc1cnc2nc1Nc1cccc(c1)COC/C=C/COCc1cc(ccc1OCCN1CCOCC1)N2 | binding | 0.1 µM |  | remaining binding | 93% |
| Cc1ccc(-c2c(/C=C(\C#N)C(=O)NC(C)C)n(CCCO)c3ncnc(N)c23)cc1 | cell-free assay, competition with immobilised ligand | 1 µM |  | remaining binding | 73% |
| NC(=O)C[C@H]1CCc2sc3ncnc(O[C@H]4CC[C@H](N5CCOCC5)CC4)c3c21 | enzyme activity, inhibitor | 10 µM |  | inhibition | 3% |

For quick reference, copied from above:
| Compound | assay | setting | scale | measurement | value |
| --- | --- | --- | --- | --- | --- |
| CCn1cc(C(=O)O)c(=O)c2c(N)c(F)c(NC3CCCCC3)cc21 | kinase activity | 0.1 µM, together with: ATP at Km |  | inhibition | 0.4% |
| Cc1cnc2nc1Nc1cccc(c1)COC/C=C/COCc1cc(ccc1OCCN1CCOCC1)N2 | binding | 0.1 µM |  | remaining binding | 93% |
